Assay results of several laboratories.
Each numbered part is a random draw from the data of one study; scales do not carry over between parts. Substitutions count along the parent as printed.
Chain of UniProt Q96SW2 (whole entry, looked up): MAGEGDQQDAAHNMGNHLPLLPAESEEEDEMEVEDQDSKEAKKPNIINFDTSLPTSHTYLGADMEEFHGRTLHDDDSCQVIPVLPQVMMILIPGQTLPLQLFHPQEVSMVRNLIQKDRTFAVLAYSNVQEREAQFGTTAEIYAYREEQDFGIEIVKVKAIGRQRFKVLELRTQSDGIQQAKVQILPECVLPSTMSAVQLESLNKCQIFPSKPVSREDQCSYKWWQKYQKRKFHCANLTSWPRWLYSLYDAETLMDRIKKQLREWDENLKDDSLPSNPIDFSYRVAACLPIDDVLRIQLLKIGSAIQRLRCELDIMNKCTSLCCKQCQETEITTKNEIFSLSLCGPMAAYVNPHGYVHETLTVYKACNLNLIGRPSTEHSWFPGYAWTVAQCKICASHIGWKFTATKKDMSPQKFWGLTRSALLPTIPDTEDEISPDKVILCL
Chain of UniProt Q9UKS7 (whole entry, looked up): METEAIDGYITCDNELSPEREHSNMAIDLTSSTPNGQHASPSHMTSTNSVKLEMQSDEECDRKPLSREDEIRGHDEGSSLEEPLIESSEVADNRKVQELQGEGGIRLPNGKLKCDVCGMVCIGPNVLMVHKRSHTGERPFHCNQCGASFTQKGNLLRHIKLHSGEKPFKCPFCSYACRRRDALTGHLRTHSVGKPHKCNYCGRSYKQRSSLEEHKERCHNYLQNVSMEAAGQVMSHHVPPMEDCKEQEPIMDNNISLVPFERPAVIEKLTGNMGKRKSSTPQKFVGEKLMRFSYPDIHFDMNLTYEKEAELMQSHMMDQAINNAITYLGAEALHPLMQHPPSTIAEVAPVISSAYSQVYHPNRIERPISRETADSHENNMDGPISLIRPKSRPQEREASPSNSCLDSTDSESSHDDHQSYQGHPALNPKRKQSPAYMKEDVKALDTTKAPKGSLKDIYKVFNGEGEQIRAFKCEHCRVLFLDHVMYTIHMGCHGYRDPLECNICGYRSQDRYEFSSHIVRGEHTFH

Sample 1
Partner: ARF12 500-593 (Arabidopsis thaliana, UniProt Q9XID4)
Method: two-hybrid
Reference: out of 4 tests
Direction: higher = firmer interaction
B1: ARF5 788-902 (Arabidopsis thaliana, UniProt P93024); chain ATPRVRTYTKVQKTGSVGRSIDVTSFKDYEELKSAIECMFGLEGLLTHPQSSGWKLVYVDYESDVLLVGDDPWEEFVGCVRCIRILSPTEVQQMSEEGMKLLNSAGINDLKTSVS
B2: ARF10 575-693 (Arabidopsis thaliana, UniProt Q9SKN5); chain LQGLETGHCKVFMESEDVGRTLDLSVIGSYQELYRKLAEMFHIEERSDLLTHVVYRDANGVIKRIGDEPFSDFMKATKRLTIKMDIGGDNVRKTWITGIRTGENGIDASTKTGPLSIFA
B3: IAA29 (Arabidopsis thaliana, UniProt Q93WC4); chain MELDLGLSLSPHKSSKLGFNFDLNKHCAIEGAASCLGTEKLRFEATFGLGNVEENCYMPKQRLFALNGQPNEEDEDPLESESSIVYDDEEENSEVVGWPPVKTCMIKYGSYHHRHIRNHHHCPYHHRGRRITAMNNNISNPTTATVGSSSSSSISSRSSMYVKVKMDGVAIARKVDIKLFNSYESLTNSLITMFTEYEDCDREDTNYTFTFQGKEGDWLLRGDVTWKIFAESVHRISIIRDRPCAYTRCLF
B4: ARF7 1030-1164 (Arabidopsis thaliana, UniProt P93022); chain PAQTQRMRTYTKVQKRGSVGRSIDVNRYRGYDELRHDLARMFGIEGQLEDPQTSDWKLVYVDHENDILLVGDDPWEEFVNCVQSIKILSSAEVQQMSLDGNFAGVPVTNQACSGGDSGNAWRGHYDDNSATSFNR
B5: ARF1 538-665 (Arabidopsis thaliana, UniProt Q8L7G0); chain SRQIRSCTKVHMQGSAVGRAIDLTRSECYEDLFKKLEEMFDIKGELLESTKKWQVVYTDDEDDMMMVGDDPWNEFCGMVRKIFIYTPEEVKKLSPKNKLAVNARMQLKADAEENGNTEGRSSSMAGSR
B6: IAA17 (Arabidopsis thaliana, UniProt P93830); chain MMGSVELNLRETELCLGLPGGDTVAPVTGNKRGFSETVDLKLNLNNEPANKEGSTTHDVVTFDSKEKSACPKDPAKPPAKAQVVGWPPVRSYRKNVMVSCQKSSGGPEAAAFVKVSMDGAPYLRKIDLRMYKSYDELSNALSNMFSSFTMGKHGGEEGMIDFMNERKLMDLVNSWDYVPSYEDKDGDWMLVGDVPWPMFVDTCKRLRLMKGSDAIGLAPRAMEKCKSRA
B7: IAA18 (Arabidopsis thaliana, UniProt O24408); chain MEGYSRNGEISPKLLDLMIPQERRNWFHDEKNSVFKTEEKKLELKLGPPGEEDDDESMIRHMKKEPKDKSILSLAGKYFSPSSTKTTSHKRTAPGPVVGWPPVRSFRKNLASGSSSKLGNDSTTSNGVTLKNQKCDAAAKTTEPKRQGGMFVKINMYGVPIGRKVDLSAHNSYEQLSFTVDKLFRGLLAAQRDFPSSIEDEKPITGLLDGNGEYTLTYEDNEGDKMLVGDVPWQMFVSSVKRLRVIKTSEISSALTYGNGKQEKMRR
B8: IAA16 (Arabidopsis thaliana, UniProt O24407); chain MINFEATELRLGLPGGNHGGEMAGKNNGKRGFSETVDLKLNLSSTAMDSVSKVDLENMKEKVVKPPAKAQVVGWPPVRSFRKNVMSGQKPTTGDATEGNDKTSGSSGATSSASACATVAYVKVSMDGAPYLRKIDLKLYKTYQDLSNALSKMFSSFTIGNYGPQGMKDFMNESKLIDLLNGSDYVPTYEDKDGDWMLVGDVPWEMFVDSCKRIRIMKGSEAIGLAPRALEKCKNRS
Construct (chain): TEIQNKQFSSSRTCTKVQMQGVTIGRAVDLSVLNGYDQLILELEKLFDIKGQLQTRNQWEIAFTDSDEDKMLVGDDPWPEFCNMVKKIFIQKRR
The positive tests of `B1 (ARF5 788-902)` is reported as 1.
With `B2 (ARF10 575-693)` the positive tests was 0.
For `B3 (IAA29)`, the positive tests was 0.
`B4 (ARF7 1030-1164)` gave a positive tests of 0.
The positive tests of `B5 (ARF1 538-665)` is reported as 0.
With `B6 (IAA17)` the positive tests was 1.
`B7 (IAA18)` has a positive tests of 0.
The positive tests of `B8 (IAA16)` is reported as 0.

Sample 2
Target: RNA binding protein fox-1 homolog 2, RRM domain, GST-SBP tag (RBFOX2, Homo sapiens, UniProt O43251-10, residues 100-194)
Method: RNA Bind-n-Seq
Form: RNA
Medium: in vitro
Concentration: 365 nM
Setting: natural RNA segment, single round, ends assumed
Reference: no-protein control
Direction: higher = stronger binding
All sequences stand within: GGGAGUUCUACAGUCCGACGAUC … UGGAAUUCUCGGGUGCCAA
Residues (chain): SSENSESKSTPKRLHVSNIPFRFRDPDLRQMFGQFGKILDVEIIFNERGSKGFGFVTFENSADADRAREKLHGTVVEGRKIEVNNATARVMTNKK
`AGGUAUAAGUUGUUUCAAGAGAGAAGAUUCACCAAAACUUGGAUCUCACCCCAUUCCAAACCCAACCCCAACCCUACUUUCCCCAUGAGACUCCCUGCCUGCUGCCAGUA`: “RBNS enrichment (R)” 1.17.
`UUUGAAGCUUCCAAUUUGCUUGCUGCUGCUGCUGCCUGGGGGCCAGGACAGAGGUAGUGGCGGCCCCCAUGCCGCCCUCCUUGAGCUGGUGAGGAGAAGUCGCCAUUGAG`: “RBNS enrichment (R)” 1.1.
For `GAGAGUGUGCAGAGAGCAAUGAUAGCAAAUAAUGUACGAAUGUUUUUUGCAUUCAAAGGACAUCCACAUCUGUUGGAAGACUUUUAAGUGAGUUUUUGUUCUUAGAUAAC`, “RBNS enrichment (R)” read 0.507.
`UGAUGAUAUUUUCCAUUAAUAAAAUGUAAUUUCAGAUUAUUCGUUUACAAGCUUUAUAAUUUUAUGAUUUUUUAAUCGUGUUUUGUCACAGACUUCCCUAGUGUUUGUAC`: “RBNS enrichment (R)” 0.814.
For `AGCCUAAGUUUGUAUUUGUAAAUUUCUUAUGCCAUCCUCUAGUCAAAUUUUUUUUCAUUGUUUAAAAAUACGGAAGUGUUCCAAUAUAAUUUUUUCCUGUACUGGAUGGC`, “RBNS enrichment (R)” read 0.733.
`UGGUCAGCUAGCUGGAGGCAGUGUUGCUGGUGUGUGUUGGGGGGAGGGGUUCUAAUGGAAUGGAUGGGGAUGUCCACACACGCAUUCAGAUGGCUGUACAACAGGUUGUA`: “RBNS enrichment (R)” 1.13.
`AUUCCUUCCUGUCGAGUUAAAUCUAAUCAGAUAUGAUGGAUGCCGGUAGUCCCAGCACUUGGAGAAGGCUGGAGGACCAGAAUUCAAGGCUAUCCUUGGCUACACAGUGA`: “RBNS enrichment (R)” 0.338.
Under “RBNS enrichment (R)”, `ACGUUGCAGUUUGUUUAAUGUAUGUUAAUUUCACCUGGCUUCAUUCAUUUUCCUUUUUAAAAUUUGUCUUUUAAAUAAACAAACAGAACCCUCUGUGAGGUUGGUGAGAG` is recorded as 0.528.

Sample 3
Target: Histone acetyltransferase KAT6A, winged helix 2, GST fusion (KAT6A, Homo sapiens, UniProt Q92794, residues 85-181)
Method: protein binding microarray
Form: double-stranded DNA, one strand shown
Medium: in vitro
Concentration: not given
Setting: 8-mer, flanks averaged, mean of 2 arrays, mostly near background
Reference: not given
Direction: higher = stronger binding
Residues (chain): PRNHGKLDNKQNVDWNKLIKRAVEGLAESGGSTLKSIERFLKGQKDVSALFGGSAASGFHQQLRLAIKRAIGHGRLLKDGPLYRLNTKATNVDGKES
`GCCAGCAA` gave an E-score of 0.113.
For `AAATAATC`, the E-score was 0.0771.
With `AGCCTCCC` the E-score was 0.00394.
The E-score of `ATCGGGGC` is reported as -0.0518.
For `GTATGAAA`, the E-score was -0.0351.
The E-score of `AAGTACGA` is reported as -0.0523.
With `CAACAGTC` the E-score was -0.134.
For `CATCCTAG`, the E-score was -0.141.

Sample 4
Target: CCNB3, cyclin fold, Cln2 fusion (human)
Method: yeast growth competition, sequencing
Medium: yeast
Setting: strong parent motif
Reference: not given
Direction: higher = stronger binding
Starting sequence: viral docking peptide; TSVRRALFTGGSD
For `TSVRRALFIGGSD [T9I]`, “normalised enrichment score” read 1.28.
`TSVHRALFTGGSD [R4H]` — result for “normalised enrichment score”: -0.272.
`TSVWRALFTGGSD [R4W]` — result for “normalised enrichment score”: 0.533.
`TSVLRALFTGGSD [R4L]`: “normalised enrichment score” 1.09.
Under “normalised enrichment score”, `TSIRRALFTGGSD [V3I]` is recorded as 1.28.
`TSVRRALFTVGSD [G10V]`: “normalised enrichment score” 1.54.
`TSVRRALFTGISD [G11I]`: “normalised enrichment score” 1.63.
`TSVRRALFKGGSD [T9K]`: “normalised enrichment score” 1.68.
`TSVRRALKTGGSD [F8K]`: “normalised enrichment score” -0.0296.
`TSVRRALFTAGSD [G10A]`: “normalised enrichment score” 1.85.
`TSVRRALFTGMSD [G11M]` — result for “normalised enrichment score”: 1.77.
`TSMRRALFTGGSD [V3M]`: “normalised enrichment score” 0.337.
`TIVRRALFTGGSD [S2I]` — result for “normalised enrichment score”: 0.987.
Under “normalised enrichment score”, `TSVRRALGTGGSD [F8G]` is recorded as 0.201.
Under “normalised enrichment score”, `TSVRDALFTGGSD [R5D]` is recorded as -0.121.
For `TSVRRWLFTGGSD [A6W]`, “normalised enrichment score” read 0.316.
`TSVRRAQFTGGSD [L7Q]`: “normalised enrichment score” 0.183.
`TSVRRALFSGGSD [T9S]`: “normalised enrichment score” 1.77.
For `TSVRRALFTDGSD [G10D]`, “normalised enrichment score” read 2.66.
`TSVRRALFTGTSD [G11T]` — result for “normalised enrichment score”: 2.43.
`TSVRRALFTNGSD [G10N]` — result for “normalised enrichment score”: 2.47.
Under “normalised enrichment score”, `TSQRRALFTGGSD [V3Q]` is recorded as -0.238.
For `TSVRRAEFTGGSD [L7E]`, “normalised enrichment score” read -0.0298.
Under “normalised enrichment score”, `TSVRRALFVGGSD [T9V]` is recorded as 2.
Under “normalised enrichment score”, `ASVRRALFTGGSD [T1A]` is recorded as 1.7.

Single results of other studies
The protein remaining of `O=C1CCC(N2Cc3c(ccc4c3OCC43CCN(Cc4ccccc4)C3)C2=O)C(=O)N1` (centres unmarked) is reported as 77% (CRBN/Zinc finger protein Helios (Homo sapiens, UniProt Q96SW2+Q9UKS7); degrader, HiBiT; HEK293; 123.5 nM).

Excerpt of the above (sample 1):
The positive tests of `B1 (ARF5 788-902)` is reported as 1.
With `B2 (ARF10 575-693)` the positive tests was 0.
For `B3 (IAA29)`, the positive tests was 0.
`B4 (ARF7 1030-1164)` gave a positive tests of 0.
The positive tests of `B5 (ARF1 538-665)` is reported as 0.
With `B6 (IAA17)` the positive tests was 1.
`B7 (IAA18)` has a positive tests of 0.
The positive tests of `B8 (IAA16)` is reported as 0.
